Measured values collected from several papers.
± gives the spread as reported.

SMILES | test | test system | conditions | how to read | endpoint | result
CC(C)C[C@H](NC(=O)[C@H](C)NC(=O)[C@H](CCCCN)NC(=O)CCNC(=S)Nc1ccc2c(c1)C1(OC2=O)c2ccc(O)cc2Oc2cc(O)ccc21)C(=O)N[C@@H](CCC(=O)O)C(=O)N[C@H](C(=O)N[C@@H](CC(C)C)C(=O)N[C@@H](CCCNC(=N)N)C(=O)N[C@@]1(C)CCCC=CCCC[C@@](C)(C(=O)N[C@H](C(=O)N[C@@H](CCC(N)=O)C(=O)N[C@@H](CCCNC(=N)N)C(=O)N[C@@H](CC(N)=O)C(=O)N[C@@H](Cc2c[nH]cn2)C(=O)N[C@@H](CCC(=O)O)C(=O)N[C@H](C(=O)N[C@@H](C)C(=O)N[C@@H](Cc2ccccc2)C(N)=O)[C@@H](C)O)C(C)C)NC(=O)[C@H](CC(=O)O)NC(=O)CNC(=O)[C@H](C(C)C)NC1=O)[C@@H](C)O | circular dichroism | potassium phosphate buffer | 20 µM, pH 7.5 | – | α-helicity | 62%
C=CCN1CCC23c4c5ccc(OC(=O)c6ccc(NC(=O)OC(C)(C)C)cc6)c4OC2C(=O)CCC3(O)C1C5 (stereo not drawn) | – | rat plasma | 1 h, with: digitonin 100 µM | – | remaining compound | 0%
COc1nc(CC=C(C)CC=CC(C)=CC(C)C(OC2OC(CO)C(O)C(O)C2O)C(C)=CCO)c(C)c(O)c1OC (stereo not drawn) | glucuronidation, substrate | human kidney microsomes | 15 min, pH 7.4 | – | Km | 73.7 ± 1.43 µM
CSCC[C@H](N)C(=O)N[C@@H](C)C(=O)N[C@@H](Cc1c[nH]c2ccccc12)C(=O)N[C@@H](Cc1c[nH]cn1)C(=O)N[C@@H](CC(=O)O)C(=O)N[C@@H](CC(=O)O)C(=O)N[C@@H](CCC(=O)O)C(=O)N[C@@H](CCC(=O)O)C(=O)N[C@@H](Cc1ccccc1)C(=O)N[C@@H](C)C(=O)N[C@@H](CCCNC(=N)N)C(=O)N[C@@H](CCCNC(=N)N)C(=O)N[C@@H](CCCNC(=N)N)C(=O)N[C@@H](CCCNC(=N)N)C(=O)NCCCCCC(=O)NCCCCC(NC(=O)CCCCCNC(=O)[C@H](CCCNC(=N)N)NC(=O)[C@H](CCCNC(=N)N)NC(=O)[C@H](CCCNC(=N)N)NC(=O)[C@H](CCCNC(=N)N)NC(=O)[C@H](C)NC(=O)[C@H](Cc1ccccc1)NC(=O)[C@H](CCC(=O)O)NC(=O)[C@H](CCC(=O)O)NC(=O)[C@H](CC(=O)O)NC(=O)[C@H](CC(=O)O)NC(=O)[C@H](Cc1c[nH]cn1)NC(=O)[C@H](Cc1c[nH]c2ccccc12)NC(=O)[C@H](C)NC(=O)[C@@H](N)CCSC)C(=O)NCCCCC(NC(=O)C(CCCCNC(=O)CCCCCNC(=O)[C@H](CCCNC(=N)N)NC(=O)[C@H](CCCNC(=N)N)NC(=O)[C@H](CCCNC(=N)N)NC(=O)[C@H](CCCNC(=N)N)NC(=O)[C@H](C)NC(=O)[C@H](Cc1ccccc1)NC(=O)[C@H](CCC(=O)O)NC(=O)[C@H](CCC(=O)O)NC(=O)[C@H](CC(=O)O)NC(=O)[C@H](CC(=O)O)NC(=O)[C@H](Cc1c[nH]cn1)NC(=O)[C@H](Cc1c[nH]c2ccccc12)NC(=O)[C@H](C)NC(=O)[C@@H](N)CCSC)NC(=O)CCCCCNC(=O)[C@H](CCCNC(=N)N)NC(=O)[C@H](CCCNC(=N)N)NC(=O)[C@H](CCCNC(=N)N)NC(=O)[C@H](CCCNC(=N)N)NC(=O)[C@H](C)NC(=O)[C@H](Cc1ccccc1)NC(=O)[C@H](CCC(=O)O)NC(=O)[C@H](CCC(=O)O)NC(=O)[C@H](CC(=O)O)NC(=O)[C@H](CC(=O)O)NC(=O)[C@H](Cc1c[nH]cn1)NC(=O)[C@H](Cc1c[nH]c2ccccc12)NC(=O)[C@H](C)NC(=O)[C@@H](N)CCSC)C(N)=O (stereo partly drawn) | – | C57BL/6 mouse female, heart | dose not given, 3 h | baseline: total | mean tissue distribution | 0.87%
CCCCC[C@@H]1NC(=O)[C@@H](C)N(C)C(=O)[C@H](CCCCC)NC(=O)[C@@H](C)N(C)C(=O)[C@H](CCCCC)NC(=O)[C@@H](C)N(C)C(=O)[C@H](CCCCC)NC(=O)[C@@H](C)N(C)C1=O | PAMPA, HPLC-UV | – | 500 µM, pH 7.4 | – | log Papp | -5.31 ± 0.04
CC(CO)C1CN2C(=O)[C@H](CC(=O)O)NC(=O)CC(CC3CC3)NC(=O)[C@H](CCC(=O)O)NC(=O)CNC(=O)[C@H]([C@@H](C)O)NC(=O)[C@H](CCC(=O)O)NC(=O)[C@@H]2C1(F)F (stereo partly drawn) | chemical stability, HPLC | human, serum | 5 nM, 4 h | – | compound remaining | ~85%
CN1Cc2cc(Cl)ccc2-n2c(nnc2C2CCN(c3cccc([18F])n3)CC2)C1 | – | C57BL/6 mouse male, kidney | intravenous, 3.7 MBq, 15 min | – | tissue uptake | 11.2 ± 2.25 %ID/g
CC(C)[C@H](NC(=O)[C@@H](NC(=O)[C@H](CCCNC(=N)N)NC(=O)[C@H](CCCNC(=N)N)NC(=O)[C@H](CCCNC(=N)N)NC(=O)[C@H](CCC(N)=O)NC(=O)[C@H](CCCNC(=N)N)NC(=O)[C@H](CCCNC(=N)N)NC(=O)[C@H](CCCCN)NC(=O)[C@H](CCCCN)NC(=O)[C@H](CCCNC(=N)N)NC(=O)CN)[C@@H](C)O)C(=O)N[C@H](C(=O)N[C@@H](CO)C(=O)N1CCC[C@H]1C(=O)O)[C@@H](C)O | – | ICR mice, male, spleen | intranasal, 10 mg/kg daily, 4 weeks | – | organ weight | 0.086 ± 0.007 g
C[C@H](O)[C@@H](NC(=O)[C@H]1CCCN1C(=O)[C@@H](CCCCN)NC(=O)[C@@H](CO)NC(=O)[C@@H](Cc1ccc(O)cc1)NC(=O)[C@@H](CC(N)=O)NC(=O)CCOCCOCCOCCNC(=O)CN1CCN(CC(=O)O)CCN(CC(=O)O)CCN(CC(=O)O)CC1)C(=O)N[C@H](CC(=O)O)C(=O)N[C@H](CCCNC(=N)N)C(=O)N[C@H](CCC(N)=O)C(=O)N[C@H](Cc1ccc(O)cc1)C(=O)N[C@H](Cc1c[nH]cn1)C(=O)N[C@H](Cc1ccccc1)C(N)=O [gallium-68 labelled] | ex vivo gamma counting | BALB/c nude mouse, U-87 MG xenograft, blood | intravenous, 1.85 MBq, 60 min | – | tissue uptake | 0.11 ± 0.02 %ID/g
CCCCCCCCCCCCCCCC(=O)N[C@@H](CCC(=O)NCCOCCOCCC(=O)NCCOCCOCCC(=O)NCCCC[C@H](NC(=O)[C@H](CC(=O)O)NC(=O)[C@H](CC(C)C)NC(=O)[C@H](Cc1ccc(O)cc1)NC(=O)[C@H](CCCCN)NC(=O)[C@H](CO)NC(=O)[C@H](Cc1ccc(O)cc1)NC(=O)[C@H](CC(=O)O)NC(=O)[C@H](CO)NC(=O)[C@@H](NC(=O)[C@H](Cc1ccccc1)NC(=O)[C@@H](NC(=O)CNC(=O)[C@H](CCC(N)=O)NC(=O)[C@@H](CO)NC(=O)[C@@H](N)Cc1c[nH]cn1)[C@@H](C)O)[C@@H](C)O)C(=O)N[C@@H](CCCNC(=N)N)C(=O)N[C@@H](CCCNC(=N)N)C(=O)N[C@@H](C)C(=O)N[C@@H](CCC(N)=O)C(=O)N[C@@H](CC(=O)O)C(=O)N[C@@H](Cc1ccccc1)C(=O)N[C@H](C(=O)N[C@@H](CCC(N)=O)C(=O)N[C@@H](Cc1c[nH]c2ccccc12)C(=O)N[C@@H](CC(C)C)C(=O)N[C@@H](CC(C)C)C(=O)N[C@@H](CC(N)=O)C(=O)N[C@H](C(=O)NCC(=O)NCC(=O)N1CCC[C@H]1C(=O)N[C@@H](CO)C(=O)N[C@@H](CO)C(=O)NCC(=O)N[C@@H](C)C(=O)N1CCC[C@H]1C(=O)N1CCC[C@H]1C(=O)N1CCC[C@H]1C(=O)N[C@@H](CO)C(N)=O)[C@@H](C)O)C(C)C)C(=O)O | – | rhesus monkey, both sexes, plasma | subcutaneous, 20 µg/kg, multiple doses, day 7 | – | half-life | 1.94 ± 0.305 h
CC[C@H](C)[C@H](NC(C)=O)C(=O)N[C@@H](Cc1ccc(O)cc1)C(=O)N[C@@H](CC(C)C)C(=O)N[C@@H](CS)C(=O)NCC(=O)N[C@@H](C)C(=O)N[C@H](C(=O)N[C@@H](CO)C(=O)N[C@@H](CC(C)C)C(=O)N[C@@H](Cc1c[nH]cn1)C(=O)N1CCC[C@H]1C(=O)N[C@@H](CCCCN)C(=O)N[C@@H](C)C(=O)N[C@@H](CCCCN)C(=O)N[C@H](C(=O)N[C@@H](CCC(=O)O)C(=O)N[C@@H](CCC(=O)O)C(=O)N[C@@H](CO)C(=O)N1CCC[C@H]1C(=O)NCC(=O)N[C@@H](C)C(N)=O)[C@@H](C)CC)[C@@H](C)CC | Cy5.5 fluorescence | mouse (C57BL/6), serum | intravenous, 10 mg/kg, 15 min to 24 h | – | elimination half-life | 0.8 h
O=C1NC2(CC2)COc2ncc(F)cc2[C@H]2COCCN2c2ccn3ncc1c3n2 | – | Sprague-Dawley rat, female, blood | oral, 5 mg/kg/day, 4 weeks, end of recovery, subacute toxicity | – | monocyte percentage | 1.3 ± 0.4%
CC[C@H](C)[C@H](NC(=O)[C@H](CCCCN)NC(=O)CNC(=O)[C@H](CC(C)C)NC(=O)[C@H](Cc1ccccc1)NC(=O)[C@H](CCCCN)NC(=O)[C@H](CO)NC(=O)[C@H](Cc1ccccc1)NC(=O)[C@H](Cc1c[nH]c2ccccc12)NC(=O)[C@H](CCC(N)=O)NC(=O)[C@@H](NC(=O)[C@H](Cc1ccccc1)NC(=O)CCCCCNC(=O)CN1CCN(CC(=O)O)CCN(CC(=O)O)CCN(CC(=O)O)CC1)C(C)C)C(=O)N[C@@H](CCC(=O)O)C(=O)N1CCC[C@H]1C(=O)N[C@@H](CC(=O)O)C(=O)N[C@H](C(=O)N[C@@H](CO)C(=O)N[C@@H](CCC(N)=O)C(=O)N[C@H](C(=O)N[C@@H](CCC(N)=O)C(=O)N[C@@H](CC(=O)O)C(=O)N1CCC[C@H]1C(=O)N[C@@H](CC(N)=O)C(=O)N[C@@H](CC(=O)O)C(=O)N[C@@H](CCC(N)=O)C(=O)N[C@@H](Cc1ccc(O)cc1)C(=O)N[C@@H](CCC(=O)O)C(=O)N1CCC[C@H]1C(=O)N[C@@H](Cc1ccccc1)C(=O)O)C(C)C)C(C)C [copper-64 labelled] | dynamic PET | mouse both sexes, CT26 tumour, untreated, tumour | intravenous, 100 µCi/mouse, 810 s | – | SUVmean | 0.72 SUV
CC(CCC(=O)NCC(=O)O)C1CCC2C3C(O)CC4CC(OC5OC(C(=O)O)C(O)C(O)C5O)CCC4(C)C3CCC12C (stereo not drawn) | – | women, T/C genotype, plasma | dose not given, geometric mean | – | glucuronide to parent ratio | 0.089
CC(C)C[C@@H](NC(=O)[C@@H](CCCNC(=N)N)NC(=O)[C@@H](Cc1c[nH]cn1)NC(=O)[C@@H](Cc1c[nH]c2ccccc12)NC(=O)[C@@H](Cc1c[nH]cn1)NC(=O)[C@@H](Cc1ccccc1)NC(=O)[C@H](NC(=O)[C@@H](Cc1ccc(O)cc1)NC(=O)CNC(=O)CNC(=O)CCOCCOCCOCCNC(=O)CN1CCN(CC(=O)O)CCN(CC(=O)O)CC1)[C@H](C)O)C(=O)N[C@H](CC(N)=O)C(=O)N1CCC[C@@H]1C(=O)O [gallium-68 labelled] | OLINDA/EXM | adult male human, LLI wall | extrapolated from C57BL/6 mice | – | organ absorbed dose | 0.0106 ± 5.77e-05 mSv/MBq
CCCC[C@@H]1NC(=O)[C@H](Cc2ccc(O)cc2)NC(=O)[C@@H]2CCCN2C(=O)[C@H](CC(=O)O)NC(=O)[C@H](C)NC(=O)[C@H](Cc2ccccc2)NC(=O)[C@@H]2CSCCC(=O)N3CN(CN(C3)C(=O)CCSC[C@@H](C(=O)N[C@@H](C)C(N)=O)NC1=O)C(=O)CCSC[C@H](NC(C)=O)C(=O)N[C@@H](CC(C)(C)C)C(=O)N1CCC[C@H]1C(=O)N[C@@H](CCC(=O)O)C(=O)N[C@H](CCCCNC(=O)CCc1cn(CCOCCOCCOCCN(CCOCCOCCOCCC(=O)N[C@H]3CSCCC(=O)N4CN5CN(C4)C(=O)CCSC[C@H](NC(=O)[C@@H](CC(=O)O)NC(=O)[C@H](Cc4cccc6ccccc46)NC(=O)[C@@H]4CCCN4C3=O)C(=O)N[C@@H](CCSC)C(=O)N[C@@H](CCCCNC(=N)N)C(=O)N[C@@H](CC(=O)O)C(=O)N[C@@H](Cc3c[nH]c4ccccc34)C(=O)N[C@@H](CO)C(=O)N[C@@H]([C@@H](C)O)C(=O)N3CCC[C@H]3C(=O)N3C[C@H](O)C[C@H]3C(=O)N[C@@H](Cc3c[nH]c4ccccc34)C(=O)N[C@H](C(N)=O)CSCCC5=O)CCOCCOCCOCCn3cc(CCC(=O)NCCCC[C@H]4NC(=O)[C@H](CCC(=O)O)NC(=O)[C@@H]5CCCN5C(=O)[C@H](CC(C)(C)C)NC(=O)[C@@H](NC(C)=O)CSCCC(=O)N5CN6CN(C5)C(=O)CCSC[C@H](NC(=O)[C@H](Cc5ccc(O)cc5)NC(=O)[C@@H]5CCCN5C4=O)C(=O)N[C@@H](Cc4ccccc4)C(=O)N[C@@H](C)C(=O)N[C@@H](CC(=O)O)C(=O)N4CCC[C@H]4C(=O)N[C@@H](Cc4ccc(O)cc4)C(=O)N[C@@H](CCCC)C(=O)N[C@H](C(=O)N[C@@H](C)C(N)=O)CSCCC6=O)nn3)nn1)C(=O)N1CCC[C@H]1C(=O)N[C@@H](Cc1ccc(O)cc1)C(=O)N2 | – | cynomolgus monkey | – | – | half-life | 6.2 ± 2.5 h
CCc1nn(C)c2nc(-c3ccc(C(=O)O)cc3)nc(NCc3ccccc3)c12 | – | male CD-1 mouse, plasma | intravenous, 1 mg/kg, 6 h | – | concentration | 4.17 ng/mL
CC(C)=CCC/C(C)=C\CCn1cc(CC(P(=O)(O)O)P(=O)(O)O)nn1 | – | CD-1 mouse, plasma | intravenous, 0.5 mg/kg, single dose | – | AUC(0-inf) | 534 ± 32 ng·h/mL
